Measured values collected from several papers.
A part holds a random share of what one study measured. Substitutions count along the parent as printed.

Block 1
Target: Ras GTPase-activating protein-binding protein 1, RRM domain (G3BP1, Homo sapiens, UniProt Q13283)
Chain of UniProt Q13283 (whole entry, looked up): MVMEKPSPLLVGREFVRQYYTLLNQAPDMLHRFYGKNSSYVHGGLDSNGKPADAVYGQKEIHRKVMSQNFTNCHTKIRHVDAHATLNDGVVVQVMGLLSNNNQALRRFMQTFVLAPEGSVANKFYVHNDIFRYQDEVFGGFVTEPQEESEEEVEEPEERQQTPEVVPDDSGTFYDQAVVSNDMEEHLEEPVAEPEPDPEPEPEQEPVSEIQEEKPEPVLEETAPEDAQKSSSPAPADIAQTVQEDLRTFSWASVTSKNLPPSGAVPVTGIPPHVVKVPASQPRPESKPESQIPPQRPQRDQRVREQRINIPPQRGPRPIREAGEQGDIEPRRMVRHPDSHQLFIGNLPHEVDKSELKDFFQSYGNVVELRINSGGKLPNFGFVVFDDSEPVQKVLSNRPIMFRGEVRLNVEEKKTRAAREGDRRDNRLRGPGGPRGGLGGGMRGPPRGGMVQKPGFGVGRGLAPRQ
Method: RNA Bind-n-Seq
Form: RNA
Matrix: in vitro
Tested at: 1 µM
Setting: whole 134-nt RNA, ends assumed
Added: 150 mM KCl
Baseline: input library
Direction: higher = stronger binding
Endpoint: log2 enrichment
Constant ends, left off below: GGGAGUUCUACAGUCCGACGAUC … UGGAAUUCUCGGGUGUCAAGG
UUGUGAGCUGCAAGCUAGGCUGCAGGCCCAGGAAGAACAGCAUCAGGAAGUCCAGAAGGCAAAAGAAGCAGACAUAGAGAAGCUGAACCA: -0.152
GUCCUGUGCUACACAUCGUAUGUACCGAAUCGGGGAGGGGAAAAAAAGGGGAAAGGGGAAAGUAUUAUGUUACGCCGUUCGGAUCUGCAC: 1.2
UGGACAUGGAUUUUCAAGCCUACUUAGCUUCCUCUAGUGAAGAUGAAGAGGAGAUAGAAGAGGAGCUACAAGGUAUUGUUAAUCUUUCAG: -0.0684
UGGCCCUGGUGGCAUGCGGGGAGGAAGAGGUGGCCUCAUGGAUCGUGGUAGUCCCGGUGGAAUGUUCAGAGGUGGCCGUGGUGGAGACAG: 1.12
UUGAGAAAAGCACCCAUAAUUUGCUACUUGAGGAUUUUAUUCCCUGGAUUCUCUGGAUGCUCAUUGCAUGAAAAGUGGAAAAGUUUAGAU: -0.173
UGGGAGGUGGAUUUUGUUUAUUUUUUUAGCUCAUUUCCAGGGGUGGGAAUUUUUUUUUAAUAUGUGUCAUGAAUAUAGUUGUUUUUGAAA: 1.64
AGUCCUGUGCUACACAUCGUAUGUACCGAAUCGGGGUUUUUGGGGAAAGGGGAGGGGAAAGUAUUAUGUUACGCCGUUCGGAUCUGCACU: 1.2
CAAGUCCUGUGCUACACAUCGUAUGUACCGAAUCGGGGAAGGGAAGGGGAAGGGGAAAGUAUUAUGUUACGCCGUUCGGAUCUGCACUUC: 1.21

Block 2
Target: Probable WRKY transcription factor 33, C-terminal DNA-binding domain (WRKY33, Arabidopsis thaliana, UniProt Q8S8P5, residues 346-449)
Method: DNA-protein interaction ELISA
Form: double-stranded DNA, one strand shown
Matrix: in vitro, bacterial lysate
Tested at: not given
Setting: whole dsDNA probe, crude lysate protein
Baseline: highest signal in screen
Direction: higher = stronger binding
Endpoint: relative absorbance
Target sequence (chain): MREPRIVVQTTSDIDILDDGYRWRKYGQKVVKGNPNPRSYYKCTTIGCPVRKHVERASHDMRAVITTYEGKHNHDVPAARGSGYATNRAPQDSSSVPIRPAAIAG
AAAAAAATTGTATCATACTTCAGTTGAAAA: 27.5 % of maximum
AAAAAATATCCTATTCTAATTTATATAAAA: 41 % of maximum
AAAAAAGTCTAGTCGTAAAAA: 71.7 % of maximum
AAAAAACTTCTAGTTTATGCTTCCGTAAAA: 33.3 % of maximum
AAAAAAGTCCATAAACTAAATTGGATAAAA: 33.7 % of maximum
AAAAAAGGGAGTCATGCTTCTTGTTTAAAA: 60.1 % of maximum
AAAAAAACTCTCCGGGTACAATTGCAAAAA: 54.5 % of maximum
AAAAAATCGGTACGCACCCCGGACTCAAAA: 54 % of maximum

Single results of other studies
P1: viral docking peptide; CKVKRKLFGSENI; partner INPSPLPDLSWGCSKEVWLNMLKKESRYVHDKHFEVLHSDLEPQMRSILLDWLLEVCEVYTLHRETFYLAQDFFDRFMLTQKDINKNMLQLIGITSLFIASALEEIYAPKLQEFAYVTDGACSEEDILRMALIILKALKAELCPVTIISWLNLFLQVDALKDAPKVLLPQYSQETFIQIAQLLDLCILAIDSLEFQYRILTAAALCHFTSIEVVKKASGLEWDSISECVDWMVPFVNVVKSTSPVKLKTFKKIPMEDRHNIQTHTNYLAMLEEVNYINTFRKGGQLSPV
PhoQ, residues 284 288 289 292 302 303 AGHLVA
fold induction (PhoP, residues 12 14 15 18 19 NHFRA (Escherichia coli, UniProt P23836); Sort-seq, item: YFP reporter; E. coli; PhoQ-PhoP variant library, added: 10 µM Mg2+; baseline: high Mg2+ state, higher = stronger signaling): 0.84

P1 F8A
normalised enrichment score (CCNE2, cyclin fold, Cln2 fusion (human); yeast growth competition, sequencing; yeast; strong parent motif; baseline: not given, higher = stronger binding): -0.272

For quick reference, copied from above (block 1):
UGGCCCUGGUGGCAUGCGGGGAGGAAGAGGUGGCCUCAUGGAUCGUGGUAGUCCCGGUGGAAUGUUCAGAGGUGGCCGUGGUGGAGACAG: 1.12
